Published values collected from several papers.
Protocols differ between the studies behind these lines. ± gives the spread as reported.
Ahr: Aryl hydrocarbon receptor (Ahr, Mus musculus, UniProt P30561)
UniProt P30561, sequence (whole entry, looked up): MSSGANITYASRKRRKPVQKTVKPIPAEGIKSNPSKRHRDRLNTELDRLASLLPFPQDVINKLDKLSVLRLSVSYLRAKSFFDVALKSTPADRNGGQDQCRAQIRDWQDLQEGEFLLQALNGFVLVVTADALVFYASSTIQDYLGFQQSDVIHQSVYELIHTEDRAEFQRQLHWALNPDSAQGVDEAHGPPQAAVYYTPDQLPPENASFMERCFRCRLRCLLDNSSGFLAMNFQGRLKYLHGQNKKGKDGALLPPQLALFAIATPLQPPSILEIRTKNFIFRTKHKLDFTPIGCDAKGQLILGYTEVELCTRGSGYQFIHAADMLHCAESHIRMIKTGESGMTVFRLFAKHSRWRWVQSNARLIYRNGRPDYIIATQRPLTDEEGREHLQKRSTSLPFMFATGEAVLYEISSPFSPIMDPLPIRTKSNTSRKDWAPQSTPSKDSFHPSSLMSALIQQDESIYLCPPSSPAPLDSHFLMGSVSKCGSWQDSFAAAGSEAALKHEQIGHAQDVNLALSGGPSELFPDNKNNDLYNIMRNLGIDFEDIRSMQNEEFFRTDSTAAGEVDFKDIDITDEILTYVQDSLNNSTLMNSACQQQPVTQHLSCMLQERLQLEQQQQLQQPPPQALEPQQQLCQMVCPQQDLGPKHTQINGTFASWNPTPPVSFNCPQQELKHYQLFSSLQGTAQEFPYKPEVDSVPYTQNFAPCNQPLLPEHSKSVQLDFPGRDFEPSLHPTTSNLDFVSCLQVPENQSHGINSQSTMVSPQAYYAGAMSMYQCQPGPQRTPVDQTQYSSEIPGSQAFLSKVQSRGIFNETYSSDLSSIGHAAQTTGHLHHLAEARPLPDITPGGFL
CYP1A2: Cytochrome P450 1A2 (CYP1A2, Homo sapiens, UniProt P05177)
UniProt P05177, sequence (whole entry, looked up): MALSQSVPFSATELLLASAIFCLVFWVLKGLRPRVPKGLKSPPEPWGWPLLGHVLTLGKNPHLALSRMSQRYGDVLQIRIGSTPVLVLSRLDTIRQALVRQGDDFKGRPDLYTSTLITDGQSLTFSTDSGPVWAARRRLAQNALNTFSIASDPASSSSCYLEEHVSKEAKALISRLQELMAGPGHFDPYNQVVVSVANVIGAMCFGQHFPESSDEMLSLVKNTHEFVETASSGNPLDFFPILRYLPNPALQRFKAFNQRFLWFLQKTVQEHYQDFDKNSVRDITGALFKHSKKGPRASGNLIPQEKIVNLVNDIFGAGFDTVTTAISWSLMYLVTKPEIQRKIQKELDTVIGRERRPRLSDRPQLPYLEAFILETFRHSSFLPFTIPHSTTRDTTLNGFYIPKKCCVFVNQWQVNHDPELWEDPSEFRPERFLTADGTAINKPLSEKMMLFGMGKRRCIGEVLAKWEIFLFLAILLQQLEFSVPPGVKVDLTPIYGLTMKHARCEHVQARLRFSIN
CYP1B1: Cytochrome P450 1B1 (CYP1B1, Homo sapiens, UniProt Q16678)
UniProt Q16678, sequence (whole entry, looked up): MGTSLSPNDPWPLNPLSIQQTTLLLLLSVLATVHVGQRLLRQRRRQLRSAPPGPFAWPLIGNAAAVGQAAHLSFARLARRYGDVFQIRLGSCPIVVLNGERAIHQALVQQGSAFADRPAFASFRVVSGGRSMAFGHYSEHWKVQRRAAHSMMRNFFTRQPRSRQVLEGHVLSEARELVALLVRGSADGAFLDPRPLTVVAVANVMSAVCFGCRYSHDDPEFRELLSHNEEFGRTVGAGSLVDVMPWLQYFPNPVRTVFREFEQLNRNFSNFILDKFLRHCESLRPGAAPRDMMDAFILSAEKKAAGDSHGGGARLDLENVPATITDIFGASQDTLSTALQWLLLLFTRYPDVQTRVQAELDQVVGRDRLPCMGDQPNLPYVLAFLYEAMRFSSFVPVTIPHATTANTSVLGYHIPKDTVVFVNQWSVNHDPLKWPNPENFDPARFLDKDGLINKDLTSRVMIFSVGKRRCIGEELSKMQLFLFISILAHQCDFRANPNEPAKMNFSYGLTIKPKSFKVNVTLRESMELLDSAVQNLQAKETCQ
CYP2D6: Cytochrome P450 2D6 (CYP2D6, Homo sapiens, UniProt P10635)
UniProt P10635, sequence (whole entry, looked up): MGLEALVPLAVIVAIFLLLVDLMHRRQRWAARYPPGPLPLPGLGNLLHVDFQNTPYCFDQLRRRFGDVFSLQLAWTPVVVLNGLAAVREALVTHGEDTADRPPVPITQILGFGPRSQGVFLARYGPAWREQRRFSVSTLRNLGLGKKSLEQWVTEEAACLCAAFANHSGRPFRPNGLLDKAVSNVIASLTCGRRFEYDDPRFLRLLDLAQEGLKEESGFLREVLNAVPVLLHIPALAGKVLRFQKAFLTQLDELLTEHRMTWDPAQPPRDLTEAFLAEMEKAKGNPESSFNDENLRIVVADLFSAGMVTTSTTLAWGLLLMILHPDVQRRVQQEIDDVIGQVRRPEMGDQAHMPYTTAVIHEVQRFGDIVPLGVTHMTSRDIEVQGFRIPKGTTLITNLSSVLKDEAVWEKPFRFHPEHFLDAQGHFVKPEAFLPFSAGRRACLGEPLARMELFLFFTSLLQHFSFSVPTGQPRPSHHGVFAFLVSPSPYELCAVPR
UniProt P00747, sequence (whole entry, looked up): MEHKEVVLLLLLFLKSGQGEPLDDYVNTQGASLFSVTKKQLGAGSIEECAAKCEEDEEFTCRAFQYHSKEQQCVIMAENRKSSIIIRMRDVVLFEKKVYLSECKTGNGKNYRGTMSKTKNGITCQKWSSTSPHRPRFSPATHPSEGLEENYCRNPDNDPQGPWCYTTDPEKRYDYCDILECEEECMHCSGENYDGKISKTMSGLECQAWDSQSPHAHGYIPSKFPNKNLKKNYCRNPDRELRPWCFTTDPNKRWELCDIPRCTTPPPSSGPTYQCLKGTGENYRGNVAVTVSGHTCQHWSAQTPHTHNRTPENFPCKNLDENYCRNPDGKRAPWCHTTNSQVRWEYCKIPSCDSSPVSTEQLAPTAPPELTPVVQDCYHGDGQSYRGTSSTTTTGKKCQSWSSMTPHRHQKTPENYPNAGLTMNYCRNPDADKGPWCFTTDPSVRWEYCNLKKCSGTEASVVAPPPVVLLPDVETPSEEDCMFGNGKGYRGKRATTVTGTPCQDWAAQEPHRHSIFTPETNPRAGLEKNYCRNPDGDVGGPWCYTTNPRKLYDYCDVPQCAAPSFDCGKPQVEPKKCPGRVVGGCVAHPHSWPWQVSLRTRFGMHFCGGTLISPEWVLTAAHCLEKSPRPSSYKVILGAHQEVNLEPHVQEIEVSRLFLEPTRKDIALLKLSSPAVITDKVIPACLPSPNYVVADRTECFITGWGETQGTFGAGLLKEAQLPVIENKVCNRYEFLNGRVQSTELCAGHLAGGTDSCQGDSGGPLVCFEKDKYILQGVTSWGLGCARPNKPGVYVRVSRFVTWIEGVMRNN
UniProt P06873, sequence (whole entry, looked up): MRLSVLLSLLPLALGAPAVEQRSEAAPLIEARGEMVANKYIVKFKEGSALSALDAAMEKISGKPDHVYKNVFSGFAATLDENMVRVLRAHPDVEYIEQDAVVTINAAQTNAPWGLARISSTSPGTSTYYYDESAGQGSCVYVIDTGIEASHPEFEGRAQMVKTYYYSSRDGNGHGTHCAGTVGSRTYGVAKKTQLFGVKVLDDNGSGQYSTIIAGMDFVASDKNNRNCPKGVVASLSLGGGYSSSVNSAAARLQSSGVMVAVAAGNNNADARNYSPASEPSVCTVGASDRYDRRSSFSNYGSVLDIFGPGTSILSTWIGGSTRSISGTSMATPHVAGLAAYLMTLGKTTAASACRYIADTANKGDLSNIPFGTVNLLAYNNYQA
UniProt Q12809, sequence (whole entry, looked up): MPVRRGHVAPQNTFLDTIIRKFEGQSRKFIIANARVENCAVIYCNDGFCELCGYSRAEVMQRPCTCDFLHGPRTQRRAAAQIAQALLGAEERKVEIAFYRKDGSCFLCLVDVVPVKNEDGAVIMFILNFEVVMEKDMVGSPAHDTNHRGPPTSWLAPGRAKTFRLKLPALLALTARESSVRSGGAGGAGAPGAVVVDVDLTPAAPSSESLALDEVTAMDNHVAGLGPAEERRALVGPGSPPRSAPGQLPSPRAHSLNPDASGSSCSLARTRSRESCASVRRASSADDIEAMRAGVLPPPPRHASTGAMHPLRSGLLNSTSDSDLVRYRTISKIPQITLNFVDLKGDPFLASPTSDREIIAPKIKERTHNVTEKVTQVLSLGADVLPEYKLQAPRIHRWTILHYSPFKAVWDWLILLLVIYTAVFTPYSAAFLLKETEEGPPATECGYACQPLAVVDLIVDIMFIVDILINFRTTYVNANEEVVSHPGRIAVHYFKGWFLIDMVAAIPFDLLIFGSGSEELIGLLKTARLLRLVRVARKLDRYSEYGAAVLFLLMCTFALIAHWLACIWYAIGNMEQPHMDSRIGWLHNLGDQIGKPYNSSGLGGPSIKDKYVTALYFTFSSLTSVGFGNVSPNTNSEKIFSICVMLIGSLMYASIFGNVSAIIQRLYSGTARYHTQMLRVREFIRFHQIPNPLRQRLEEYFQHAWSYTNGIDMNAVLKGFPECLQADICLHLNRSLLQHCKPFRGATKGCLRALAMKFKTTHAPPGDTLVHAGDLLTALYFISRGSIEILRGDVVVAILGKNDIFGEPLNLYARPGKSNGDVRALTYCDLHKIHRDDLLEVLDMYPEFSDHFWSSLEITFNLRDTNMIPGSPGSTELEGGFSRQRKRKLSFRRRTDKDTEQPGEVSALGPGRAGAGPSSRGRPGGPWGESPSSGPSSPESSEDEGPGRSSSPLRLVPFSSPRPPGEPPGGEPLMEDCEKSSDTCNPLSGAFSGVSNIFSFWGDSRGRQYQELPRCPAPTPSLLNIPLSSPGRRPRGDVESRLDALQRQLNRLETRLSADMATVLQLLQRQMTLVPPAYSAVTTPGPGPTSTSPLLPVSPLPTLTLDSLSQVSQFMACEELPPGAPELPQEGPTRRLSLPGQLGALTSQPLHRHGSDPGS

Compound	tested on	assay	test system	setting	measurement	result
Clc1ccc(-c2cc(Cl)c(Cl)cc2Cl)cc1Cl	Ahr	binding, competitor	–	in vitro expressed receptor, together with: [3H]TCDD	Ki	3190 nM
O=S(=O)(O)Oc1ccc(-c2ccc(Cl)cc2Cl)cc1Cl	sulfatase, human liver microsomes	substrate	–	pH 7.4, 37 °C	Km	27.9 ± 4.7 µM
OC[C@@H](O)c1ccccc1	Cytochrome P450 2E1 (CYP2E1, Homo sapiens, UniProt P05181)	enzyme activity, inhibitor	human liver microsomes	concentration not given, at high concentration	residual activity	11%
CCCSc1ccc2nc(NC(=O)OC)[nH]c2c1	CYP1A2	inhibitor	human liver microsomes	2 µM, pH 7.4, together with: phenacetin	inhibition	31.1%
CCCCCCCC[N+](CCCCCCCC)(CCCCCCCC)CCCCCCCC	Voltage-gated inwardly rectifying potassium channel KCNH2 (KCNH2, Homo sapiens, UniProt Q12809)	thallium influx, inhibitor, confirmation	hERG-transduced cells	–	IC50	260 ± 100 nM
Clc1ccc(-c2cc(Cl)c(Cl)c(Cl)c2)cc1Cl	Ahr	reporter gene, agonist	Hepa-1c1c7	24 h	EC50	4.7 ± 3.2 nM
CCCC[C@H](NC(C)=O)C(=O)N[C@@H](CO)C(=O)N[C@H](C(=O)N1CCC[C@H]1C(=O)N[C@@H](C)C(=O)N[C@@H](CCCNC(=N)N)C(=O)N[C@@H](CCCNC(=N)N)C(=O)N[C@@H](CCCNC(=N)N)C(=O)N[C@@H](CC(C)C)C(=O)N[C@@H](CCCC)C(=O)N[C@@H](CCCNC(=N)N)C(=O)N[C@@H](CC(=O)O)C(=O)N[C@@H](Cc1ccccc1)C(=O)N[C@@H](CCCCN)C(=O)N[C@@H](CCCNC(=N)N)C(=O)N[C@@H](CC(C)C)C(=O)N[C@@H](CCC(N)=O)C(N)=O)[C@@H](C)O	Proteinase K (PROK, Engyodontium album, UniProt P06873)	substrate, LC-MS	–	25 µM, pH 7.4	half-life	17 min
O=C1Nc2ccc(Cl)cc2[C@@](C#CC2CC2)(C(F)(F)F)O1	Cytochrome P450 2B6 (CYP2B6, Homo sapiens, UniProt P20813)	–	healthy human, plasma	oral, 50 mg, together with: midazolam 2 mg, no ritlecitinib	AUC(0-72 h)	5560 ng·h/mL
C#CCOCc1ccc(-c2ccccc2)cc1	CYP1B1	reverse type I spectral binding	–	pH 7.4	Kd	13000 ± 1500 nM
Clc1ccc(-c2cc(Cl)c(Cl)c(Cl)c2)cc1Cl	Ahr	binding, competitor	–	in vitro expressed receptor, together with: [3H]TCDD	Ki	4.6 nM
CNC(=O)Oc1cc(C)c(SC)c(C)c1	CYP1A2	inhibitor	human liver microsomes	2 µM, pH 7.4, together with: phenacetin	inhibition	77.5%
C1CO1	glutathione S-transferase, human	substrate, headspace gas uptake	human, liver cytosol	no saturation seen	Km	≥ 9000 µM
O=S(=O)(O)Oc1ccc(-c2ccc(Cl)cc2)cc1	sulfatase, human liver microsomes	substrate	–	pH 7.4, 37 °C	Km	41 ± 18.4 µM
CSc1nc2cc(Cl)c(Oc3cccc(Cl)c3Cl)cc2[nH]1	CYP2D6	inhibitor	human liver microsomes	2 µM, pH 7.4, together with: dextromethorphan	inhibition	< 0%
CC(C)C[C@H](NC(=O)[C@H](Cc1ccc(O)cc1)NC(=O)[C@@H]1CCCN1C(=O)[C@@H]1CCCN1C(=O)[C@@H](N)CC(C)C)C(=O)N[C@@H](Cc1ccccc1)C(=O)N[C@H](C(=O)O)[C@@H](C)O	Transcriptional regulator ERG (ERG, Homo sapiens, UniProt P11308)	immunofluorescence	VCaP	1 µM, 6 h	nuclear co-localization	78 ± 5%
C#CCOCCc1cccc2ccccc12	CYP1B1	reverse type I spectral binding	–	pH 7.4	Kd	88000 ± 18000 nM
Oc1cc(O)cc(/C=C/c2ccc(O)c(O)c2)c1	UGT1A9 human	4'-O-glucuronide formation, substrate	–	pH 7.4	Km	15.1 ± 2.7 µM
C#CCOc1ccc(-c2ccccc2)cc1	CYP1B1	reverse type I spectral binding	–	pH 7.4	Kd	83000 ± 26000 nM
CC(C)C=Cc1c(O)cc(/C=C/c2ccc(O)cc2)cc1O	UGT1A7 human	4'-O-glucuronide formation, substrate	–	pH 7.4	Km	36.7 ± 5.9 µM
O=Cc1c(Cc2c[nH]c3ccccc23)[nH]c2ccccc12	Ahr	reporter gene, activator	H1L7.5c3 (mouse)	6 h	EC50	291 nM
Clc1ccc(-c2ccc(Cl)c(Cl)c2)cc1Cl	Ahr	reporter gene, agonist	Hepa-1c1c7	24 h	EC50	108 ± 39 nM
CCC[S+]([O-])c1ccc2[nH]c(NC(=O)OC)nc2c1 (stereo not drawn)	CYP2D6	inhibitor	human liver microsomes	10 µM, pH 7.4, together with: dextromethorphan	inhibition	< 0%
CN[C@@](C)(C[18F])C(=O)O	–	–	mouse, blood	2 h, tumour-bearing	tracer uptake	0.5 %ID/g
CC[N+]1=C(C=CC=CC=C2N(CCCCCC(=O)NCCN3C(=O)CC(SC[C@@H](NC(=O)[C@@H](CCCNC(=N)N)NC(=O)[C@@H](CCCNC(=N)N)NC(=O)[C@@H](CCCNC(=N)N)NC(=O)[C@@H](CCCNC(=N)N)NC(=O)[C@@H](CCCNC(=N)N)NC(=O)[C@@H](CCCNC(=N)N)NC(=O)[C@@H](CCCNC(=N)N)NC(=O)[C@@H](CCCNC(=N)N)NC(=O)[C@@H](CCCNC(=N)N)NC(=O)[C@H](CC(C)C)NC(=O)[C@H](CCCCN)NC(=O)[C@H](CC(C)C)NC(=O)[C@H](CCC(N)=O)NC(=O)[C@H](CC(C)C)NC(=O)[C@H](CCCNC(=N)N)NC(=O)CCCCCNC(=O)[C@@H](CCC(=O)O)NC(=O)[C@@H](CCC(=O)O)NC(=O)[C@@H](CCC(=O)O)NC(=O)[C@@H](CCC(=O)O)NC(=O)[C@@H](CCC(=O)O)NC(=O)[C@@H](CCC(=O)O)NC(=O)[C@@H](CCC(=O)O)NC(=O)[C@@H](CCC(=O)O)NC(=O)[C@H](N)CCC(=O)O)C(N)=O)C3=O)c3ccc(S(=O)(=O)O)cc3C2(C)C)C(C)(C)c2cc(S(=O)(=O)[O-])ccc21 (stereo partly drawn)	Plasminogen (PLG, Homo sapiens, UniProt P00747)	substrate	–	5 µM, 2 h	cleavage	77.9 ± 2.1%

Some of these lines once more:
Compound	tested on	assay	test system	setting	measurement	result
O=S(=O)(O)Oc1ccc(-c2ccc(Cl)cc2Cl)cc1Cl	sulfatase, human liver microsomes	substrate	–	pH 7.4, 37 °C	Km	27.9 ± 4.7 µM
CSc1nc2cc(Cl)c(Oc3cccc(Cl)c3Cl)cc2[nH]1	CYP2D6	inhibitor	human liver microsomes	2 µM, pH 7.4, together with: dextromethorphan	inhibition	< 0%
O=S(=O)(O)Oc1ccc(-c2ccc(Cl)cc2)cc1	sulfatase, human liver microsomes	substrate	–	pH 7.4, 37 °C	Km	41 ± 18.4 µM
